Measured values of several laboratories.
Every numbered part comes from another study and shows a few of its results, in no order. Substitutions count along the parent as printed.
Chain of UniProt O60674 (whole entry, looked up): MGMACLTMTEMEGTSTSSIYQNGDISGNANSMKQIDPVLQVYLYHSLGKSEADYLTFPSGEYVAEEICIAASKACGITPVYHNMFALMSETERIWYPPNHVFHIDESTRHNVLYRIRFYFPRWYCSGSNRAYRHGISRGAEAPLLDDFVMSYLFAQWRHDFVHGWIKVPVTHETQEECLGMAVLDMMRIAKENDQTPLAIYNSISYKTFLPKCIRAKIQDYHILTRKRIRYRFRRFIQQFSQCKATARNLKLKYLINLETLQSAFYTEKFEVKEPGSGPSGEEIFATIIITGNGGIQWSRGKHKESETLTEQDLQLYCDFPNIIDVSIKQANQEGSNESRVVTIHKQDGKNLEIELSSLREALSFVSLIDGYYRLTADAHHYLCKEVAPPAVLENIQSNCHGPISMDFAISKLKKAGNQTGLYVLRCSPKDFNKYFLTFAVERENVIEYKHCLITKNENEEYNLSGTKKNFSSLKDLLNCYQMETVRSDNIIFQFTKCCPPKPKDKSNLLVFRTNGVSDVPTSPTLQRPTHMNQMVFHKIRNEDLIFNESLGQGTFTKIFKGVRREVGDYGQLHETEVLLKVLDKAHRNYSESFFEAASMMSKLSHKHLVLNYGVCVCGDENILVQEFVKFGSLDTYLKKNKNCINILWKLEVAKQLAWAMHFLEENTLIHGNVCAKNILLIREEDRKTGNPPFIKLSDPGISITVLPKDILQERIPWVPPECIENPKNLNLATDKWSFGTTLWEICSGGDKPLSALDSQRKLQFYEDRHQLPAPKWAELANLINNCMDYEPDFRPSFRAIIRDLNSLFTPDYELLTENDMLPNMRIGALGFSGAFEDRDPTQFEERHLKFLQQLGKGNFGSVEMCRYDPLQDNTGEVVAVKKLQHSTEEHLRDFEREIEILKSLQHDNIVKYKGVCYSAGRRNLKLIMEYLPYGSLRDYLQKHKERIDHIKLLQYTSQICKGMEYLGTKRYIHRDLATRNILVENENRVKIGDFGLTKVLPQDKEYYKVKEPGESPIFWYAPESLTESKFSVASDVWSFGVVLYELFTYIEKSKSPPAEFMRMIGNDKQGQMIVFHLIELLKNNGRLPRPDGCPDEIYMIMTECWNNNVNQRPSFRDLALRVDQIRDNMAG

Sample 1
Target: CCNB3, cyclin fold, Cln2 fusion (human)
Method: yeast growth competition, sequencing
Medium: yeast
Setting: strong parent motif
Baseline: not given
Direction: higher = stronger binding
Starting sequence: viral docking peptide; TSVRRALFTGGSD; partner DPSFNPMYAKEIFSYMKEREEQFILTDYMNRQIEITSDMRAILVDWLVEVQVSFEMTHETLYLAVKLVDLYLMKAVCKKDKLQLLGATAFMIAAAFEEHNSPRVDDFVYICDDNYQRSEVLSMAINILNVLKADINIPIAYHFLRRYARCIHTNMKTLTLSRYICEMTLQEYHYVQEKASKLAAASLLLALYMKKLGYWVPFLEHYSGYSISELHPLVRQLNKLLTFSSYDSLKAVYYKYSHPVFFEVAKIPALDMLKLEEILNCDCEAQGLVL
Under “normalised enrichment score”, `G11N` is recorded as 1.79.
`A6K` — result for “normalised enrichment score”: 3.62.
`S2Q`: “normalised enrichment score” 1.2.
`A6H` — result for “normalised enrichment score”: 0.918.
`V3P` — result for “normalised enrichment score”: 0.743.
`S12H`: “normalised enrichment score” 1.68.
For `S12I`, “normalised enrichment score” read 1.62.
`R4E` — result for “normalised enrichment score”: -0.057.
Under “normalised enrichment score”, `T9H` is recorded as 1.87.
Under “normalised enrichment score”, `L7S` is recorded as -0.247.
`V3D` — result for “normalised enrichment score”: 0.00322.
Under “normalised enrichment score”, `R5H` is recorded as 0.437.
For `R4S`, “normalised enrichment score” read 0.443.
`V3N` — result for “normalised enrichment score”: -0.225.
`G10H` — result for “normalised enrichment score”: 1.45.
`S12Q`: “normalised enrichment score” 2.25.
`R5C` — result for “normalised enrichment score”: 0.372.
`F8Y`: “normalised enrichment score” 0.2.

Sample 2
Target: POU, POU domain (Salpingoeca helianthica)
Method: Spec-seq
Molecule type: double-stranded DNA, one strand shown
Medium: in vitro
Concentration: not given
Setting: whole probe, mean of replicates
Baseline: not given
Direction: lower = stronger binding
Shared flanks, not repeated: GAGTCGTCTCGTCAGCAC … TCCGTAGAGCACTCAGGTC
Residues (chain): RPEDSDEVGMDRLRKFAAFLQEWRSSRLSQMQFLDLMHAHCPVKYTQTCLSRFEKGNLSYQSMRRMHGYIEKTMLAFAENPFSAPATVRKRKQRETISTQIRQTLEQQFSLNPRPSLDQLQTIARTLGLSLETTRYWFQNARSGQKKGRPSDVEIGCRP
`ATGCGTC`: “relative binding energy” 1.19 ln ratio.
`ATAGCGA`: “relative binding energy” 1.22 ln ratio.
Under “relative binding energy”, `ATTCCGA` is recorded as 1.19 ln ratio.
For `ATGCAGC`, “relative binding energy” read 1.28 ln ratio.
Under “relative binding energy”, `CATATAA` is recorded as 0.282 ln ratio.
For `GAGTTAA`, “relative binding energy” read -0.557 ln ratio.
`ACTGTAA` — result for “relative binding energy”: 0.584 ln ratio.
For `GACCTAA`, “relative binding energy” read 0.781 ln ratio.

Sample 3
Target: RING finger protein unkempt homolog, zinc fingers 1-6, GST-SBP tag (UNK, Homo sapiens, UniProt Q9C0B0, residues 30-357)
Chain of UniProt Q9C0B0 (30-357, looked up): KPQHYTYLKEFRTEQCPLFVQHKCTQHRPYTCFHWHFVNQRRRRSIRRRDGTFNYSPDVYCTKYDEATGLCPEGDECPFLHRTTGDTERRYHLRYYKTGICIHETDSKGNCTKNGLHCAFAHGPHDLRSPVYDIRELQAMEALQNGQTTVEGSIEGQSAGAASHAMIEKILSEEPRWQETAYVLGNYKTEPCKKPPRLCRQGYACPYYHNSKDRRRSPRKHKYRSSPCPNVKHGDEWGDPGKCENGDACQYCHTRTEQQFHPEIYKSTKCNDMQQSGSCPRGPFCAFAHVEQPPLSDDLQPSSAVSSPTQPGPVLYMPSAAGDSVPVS
Method: RNA Bind-n-Seq
Molecule type: RNA
Medium: in vitro
Concentration: not given
Setting: RNA with constant flanks, human and mouse sites, ends assumed
Baseline: input RNA pool
Direction: higher = stronger binding
For `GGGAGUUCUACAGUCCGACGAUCCCUCUGAGGAAGAAUGCAGGUGCCUCCAGCAGUCUGGUGCUGCACUCCAGCCCUCUUAAUGUCCUCAUGGGAUCUUCAGGGAAAGAAGAGAAUGAAAGCCAUGAGCCGUCAGCUGAGUCUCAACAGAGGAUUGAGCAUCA`, the bound/input enrichment was 0.128 ratio.
For `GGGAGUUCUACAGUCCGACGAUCCUUAGUAGAUAAUUUGGGUGGUACUGAAGCACCUAUUAUCUCUUAUUUCUGUUCUCUAGGCUGUUAUGUUAAUUCCUCUGAUAUGUUAAAGUAAUGGGUGAGACCAGAAAAAGAAAUUUCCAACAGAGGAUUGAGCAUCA`, the bound/input enrichment was 0.428 ratio.
The bound/input enrichment of `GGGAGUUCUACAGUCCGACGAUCGAGGAGCCAGAGGUGAUCCCUGGACCUCCAUCAGAAAGCCCUGGCAUGCUAACAAAGCUCCAGAUCAAACAGAUGAUGGAAGCAGCAACACGACAAAUCGAGGAACGGAAAAAACAGCUGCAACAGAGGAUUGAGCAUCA` is reported as 0.124 ratio.
`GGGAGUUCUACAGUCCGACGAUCAGAACGGACAUUUCAGUACCAGGACUCUCUUCCGUCAUUGCCUGUUCCUGCACUUGAAGAAUCAUUAAAAAAAUACCUUGAAUCAGUGAAACCAUUCGCAAAUGAAGACGAGUAUAAGAACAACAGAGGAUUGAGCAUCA` has a bound/input enrichment of 0.171 ratio.
With `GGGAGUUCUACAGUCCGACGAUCGCCCAGGGAUUCCAGGUUGAAUACAAAGAUUUUCCCAAGAACAACAAGAACGAGUGUGUAUCUCUCAUCAACUGCUCCUCACAGCCGCCUCUCGUCAGUCAUGGCAUCGGCAAGGAUGUGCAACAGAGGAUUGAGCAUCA` the bound/input enrichment was 0.165 ratio.
`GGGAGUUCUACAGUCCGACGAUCCUGAAAUAAAUCAGCUUUAAACCUGCUUUUUAAAAAUAUCUGGGUUGGAAUUUGCCCCUGACAAAUAAUAAAAUGAUGAGUGAUGCAAGUGACAUGUUGGCUGCAGCGUUGGAGCAGAUGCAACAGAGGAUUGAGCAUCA` has a bound/input enrichment of 0.767 ratio.
With `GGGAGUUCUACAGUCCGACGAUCUUCAGUCCUAGCUUUUGUGUGGCCAUAAAAAUAGAUUUACUUAAAGUGCACUGUCUGGUCAUCUGACUUGCAACCUUCAAUCAGCACUAAAAUUAAAACAUGGAACAAAAUUUGUGCUGACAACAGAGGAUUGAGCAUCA` the bound/input enrichment was 0.903 ratio.
With `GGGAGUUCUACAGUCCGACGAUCGACAUUAUCAAGUUUCUGCAGGAACACGGUUCAGAUUCGUUUCUUGCAGAACAUAAAUUAUUAGGAAACAUUAAAAAUGUGGCCAAGACAGCUAACAAGGACCACUUGGUUACAGCCUAUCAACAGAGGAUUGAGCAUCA` the bound/input enrichment was 3.47 ratio.

Single results of other studies
P1: PafA, mature enzyme, eGFP fusion (Elizabethkingia meningoseptica, UniProt Q9KJX5); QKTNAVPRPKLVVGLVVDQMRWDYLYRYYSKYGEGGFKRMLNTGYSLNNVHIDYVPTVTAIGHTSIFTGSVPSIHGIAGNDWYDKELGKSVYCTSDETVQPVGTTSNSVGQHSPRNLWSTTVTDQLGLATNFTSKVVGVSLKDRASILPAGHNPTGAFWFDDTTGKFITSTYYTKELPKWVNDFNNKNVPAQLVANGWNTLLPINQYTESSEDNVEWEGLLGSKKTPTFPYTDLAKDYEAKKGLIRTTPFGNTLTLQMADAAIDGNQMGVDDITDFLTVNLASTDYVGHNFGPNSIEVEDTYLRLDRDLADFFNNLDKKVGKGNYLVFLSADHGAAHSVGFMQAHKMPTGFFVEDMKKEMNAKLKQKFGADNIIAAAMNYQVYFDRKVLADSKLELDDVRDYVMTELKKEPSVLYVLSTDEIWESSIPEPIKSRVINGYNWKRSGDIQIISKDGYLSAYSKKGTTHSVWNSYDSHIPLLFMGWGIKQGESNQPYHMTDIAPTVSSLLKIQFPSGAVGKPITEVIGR
`COC(=O)c1cc(N(C)C(=O)c2ccn3ncc(-c4ccc(C(=O)O)cc4)c3c2)ccc1Cl` has an IC50 of greater than 30 µM (JAK2 (Homo sapiens, UniProt O60674); enzyme activity, inhibitor).
Under “oxyanion analog dissociation constant”, `P1 A335V` is recorded as 2970 nM (tungstate, free oxyanion; microfluidic competitive inhibition; in vitro, cell-free expressed; not given, derived from inhibition constants, unchanged parent 2230 nM; lower = stronger binding).
